Published values collected from several papers.
Protocols differ between the studies behind these lines. Values joined by “and” are separate records of one study, mostly repeats; a detail may differ. ± marks the error that the study gave.

CO[C@H]1C[C@@H]2CC[C@@H](C)[C@@](O)(O2)C(=O)C(=O)N2CCCC[C@H]2C(=O)O[C@H]([C@H](C)C[C@@H]2CC[C@@H](OC(=O)NCCOCCOCCOCCOCCOCCOCCOCCOCCC(=O)N3CCc4cc(Cn5nc(-c6ccc7oc(N)nc7c6)c6c(N)ncnc65)ccc4C3)[C@H](OC)C2)C[C@@H](O)[C@H](C)/C=C(\C)[C@@H](O)[C@@H](OC)C(=O)[C@H](C)C[C@H](C)/C=C/C=C/C=C/1C
TRAE incidence (phase 1 dose escalation, refers to: headache; advanced solid tumour patients; intravenous, 12 mg weekly, grade ≥3): 0%

C[C@]1(CO)Cc2ncn(-c3ccc(C#N)c(Cl)c3)c2C(=O)O1
Cmax at steady state (human, plasma; 3 mg once daily, fasted): 141 nM

CC(=O)OC[C@H]1O[C@@H](Oc2cc(O)cc3cc4oc(C)cc(=O)c4c(O)c23)[C@H](O)[C@@H](O)[C@@H]1O
cell viability (HK-2 co-cultured with HepaRG; MTT; 16.67 µM, 48 h; relative to: untreated control): 96.6 ± 9.43%

COc1cc2ncnc(Nc3cccc(Cl)c3)c2cc1OC
viability (HaCaT; 0.046 µM, 60 h): 102% and 99.3% and 105%

CCc1ccc(CC/C=C/c2ccc3c(c2)C(=O)CC3)cc1
large unstained cells (Sprague-Dawley rat, male, blood; oral, 120 mg/kg/day, 14 days): 1.47%

COc1cc2c(Oc3ccc4[nH]c(C)cc4c3F)ccnc2cc1OCC1(N)CC1
grade 1 or 2 Nausea (paediatric recurrent refractory sarcoma; concentration not given, whole group): 5.9%

COc1ccc2c(c1OC)C(=O)c1c(cc(C)c(O)c1OC)C2=O
cell viability (HK-2 co-cultured with HepaRG; MTT; 133.33 µM, 24 h; relative to: untreated control): 86.1 ± 18.2%

CC(=O)N1CCC(C(=O)N2CCN3C(=O)c4cc(-c5ccccc5)ccc4NC(=O)C3C2)CC1 (stereo not shown)
revertants per plate (Salmonella typhimurium; TA100; 500 µg/plate, with rat liver S9): 116

Cc1cc2c(c(O)c1O)C(=O)c1c(O)cc(O)cc1C2=O
cell viability (HepaRG co-cultured with HK-2; MTT; 66.67 µM, 24 h; relative to: untreated control): 54.2 ± 6.54%

COc1cccc(-c2n[nH]c(SCc3ccccn3)n2)c1OC
revertant colonies per plate (Salmonella typhimurium; Ames test, preincubation; TA1535; 0.50 mg/plate, with rat liver S9): 12
